Assay results collected from several papers.
Compare with care: the assays were run in different laboratories. ± gives the spread as reported.
Nuclear receptor subfamily 2 group C member 2 ligand-binding domain: Nuclear receptor subfamily 2 group C member 2, ligand-binding domain (Homo sapiens, UniProt P49116)
Sequence of UniProt P49116 (whole entry, looked up): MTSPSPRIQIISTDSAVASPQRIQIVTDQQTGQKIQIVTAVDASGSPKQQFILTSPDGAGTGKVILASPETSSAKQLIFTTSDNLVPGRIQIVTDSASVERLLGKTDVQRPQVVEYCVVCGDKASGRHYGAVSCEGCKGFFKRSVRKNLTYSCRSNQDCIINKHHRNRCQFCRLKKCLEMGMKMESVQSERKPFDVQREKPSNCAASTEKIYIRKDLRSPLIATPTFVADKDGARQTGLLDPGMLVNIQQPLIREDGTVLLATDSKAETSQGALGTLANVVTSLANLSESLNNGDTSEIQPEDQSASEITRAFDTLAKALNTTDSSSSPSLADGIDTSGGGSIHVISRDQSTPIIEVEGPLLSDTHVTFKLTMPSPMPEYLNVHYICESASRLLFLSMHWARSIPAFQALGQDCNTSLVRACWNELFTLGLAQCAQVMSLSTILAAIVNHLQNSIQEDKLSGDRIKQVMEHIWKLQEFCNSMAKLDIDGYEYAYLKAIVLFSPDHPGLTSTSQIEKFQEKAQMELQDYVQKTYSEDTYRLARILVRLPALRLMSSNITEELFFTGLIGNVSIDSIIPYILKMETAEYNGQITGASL

Compound	target or system	test	system	conditions	quantity	result
CNC(=O)c1cccc(-c2ccc(O[C@H]3O[C@H](CO)[C@@H](O)[C@H](O)[C@@H]3O)c(C)c2)c1	–	–	male Sprague-Dawley rat, plasma	oral, 10 mg/kg, group mean	Tmax	1.42 h
CCCCOCCOc1ccc(-c2ccc3c(c2)/C=C(/C(=O)Nc2ccc([S@@+]([O-])Cc4cncn4CCC)cc2)CCCN3CC(C)C)cc1	–	–	moderate hepatic impairment patients, plasma	oral, 150 mg, day 1, single dose, geometric mean	Tmax	5.4 h
Cc1cc(-c2ccc3cc[nH]c(=O)c3c2)ccc1O[C@H]1O[C@H](CO)[C@@H](O)[C@H](O)[C@@H]1O	–	–	Sprague-Dawley rat, male, plasma	oral, 10 mg/kg	Tmax	0.5 h
CC(=O)CC(c1ccccc1)c1c(O)c2ccccc2oc1=O (stereo not shown)	–	–	Sprague-Dawley rat, male, plasma	oral, 0.3 mg/kg/day, 1 week, without PNS	Tmax	2.2 ± 0.37 h
C1=C/COCc2cc(ccc2OCCN2CCCC2)Nc2nccc(n2)-c2cccc(c2)COC/1	–	LC-MS/MS	Sprague-Dawley rat, male, plasma	oral, 36 mg/kg, together with: isavuconazole 20 mg/kg oral	Tmax	7.33 ± 2.07 h
N=C(N)NCCNC(=O)C1(Nc2ccccc2)CCN(Cc2ccccc2)CC1	–	–	Sprague-Dawley rats, both sexes, plasma	oral, 50 mg/kg, mean of both sexes	Tmax	0.2 h
CN1CCC[C@H](CN2c3ccccc3Sc3ccccc32)C1.Cl	–	–	Wistar rat female, eye	oral, 16 mg/kg	Tmax	6 h
COC(=O)C1=CO[C@@H](O[C@@H]2O[C@H](CO)[C@@H](O)[C@H](O)[C@H]2O)[C@@H]2C(CO)=CC[C@H]12	–	–	rat, plasma	oral, 500 mg/kg Eu + 217 mg/kg Pc extract, dosed as combined Eu and Pc extracts	Tmax	0.63 ± 0.53 h
NS(=O)(=O)c1ccc(-n2nc(C(F)(F)F)cc2-c2ccc(C(=O)O)cc2)cc1	–	–	Sprague-Dawley rat, whole blood	oral, 20 mg/kg of celecoxib	Tmax	21.3 h
CC(C)c1nc(N(C)S(C)(=O)=O)nc(-c2ccc(F)cc2)c1/C=C/[C@@H](O)C[C@@H](O)CC(=O)O	–	–	rat, Wistar albino, plasma	oral, 20 mg/kg	Tmax	3.4 h
O=C(O)C1=CO[C@@H](O[C@@H]2O[C@H](CO)[C@@H](O)[C@H](O)[C@H]2O)[C@@H]2C(CO)=CC[C@H]12	–	–	rat, plasma	oral, 500 mg/kg Eu + 217 mg/kg Pc extract, dosed as combined Eu and Pc extracts	Tmax	3 ± 0.87 h
C[C@]12CCC(=O)C=C1CC[C@@H]1[C@@H]2[C@@H](O)C[C@@]2(C)[C@H]1CC[C@]2(O)C(=O)CO	Nuclear receptor subfamily 2 group C member 2 ligand-binding domain	SPR imaging	–	–	Kd	5.69 nM
CCCCCCCOc1ccc(CCC(N)(CO)CO)cc1C(F)(F)F.Cl	–	–	male Sprague-Dawley rat, heart	oral, 1 mg/kg, single dose	Tmax	8 h
CCc1cc(C(=O)NC)c2nccc(N3CCc4c(cc(Cn5ccnc5)cc4-c4cn(C)nc4C(F)(F)F)C3=O)c2c1	–	–	Sprague Dawley rat, male, plasma	oral, 50 mg/kg once daily, 7 days	Tmax	1 h
Cc1cccc(CNC(=O)c2cn(CCNC(=O)c3ccccc3S)c3cc4c(cc3c2=O)OC(F)(F)O4)n1	–	–	Sprague-Dawley rat, male, plasma	intravenous, 5 mg/kg of parent drug	Tmax	0.083 h
CC(NC(=O)c1ccccc1/N=C/c1c(O)ccc2ccccc12)c1ccccc1 (stereo not shown)	OCI-Ly1	–	–	0.1 µM, 120 h	viability	113%

Compound	target or system	test	system	conditions	quantity	result
O=C1c2ccncc2C(=O)c2c1[nH]c1ccccc21	–	–	Sprague-Dawley rat, male, plasma	intravenous, 1 mg/kg	Tmax	0.08 h
C=CC(=O)N1CCC(Oc2cc3c(Nc4ccc(Cl)c(Cl)c4F)ncnc3cc2OC)CC1	–	–	Sprague-Dawley rat, male, plasma	oral, 2 mg/kg, 1 weeks pretreatment, together with: Schisandrin B 20 mg/kg daily pretreatment	Tmax	0.36 ± 0.34 h
OCC1=C[C@@H](O)[C@@H]2C=CO[C@@H](O[C@@H]3O[C@H](CO)[C@@H](O)[C@H](O)[C@H]3O)[C@H]12	–	–	rat, plasma	oral, 500 mg/kg Eu extract, dosed as Eu extract	Tmax	2 ± 1.5 h
O=C(O)c1cc(O)c(O)c(O)c1	–	–	rat, plasma	oral, 500 mg/kg extract, extract	Tmax	0.94 ± 0.06 h
C=CC(=O)N1CCC[C@@H](n2nc(-c3ccc(Oc4ccccc4)cc3)c3c(N)ncnc32)C1	–	–	male Wistar rat, kidney	oral, 50 mg/kg	Tmax	1 h
N#CC(Cc1ccc(O)cc1)c1ccc(O)cc1 (stereo not shown)	–	measured: total aglycone	rat, Long-Evans, female, serum	subcutaneous, 2 mg/kg single dose	Tmax	0.5 h
CNC(=O)c1cccc(-c2ccc([C@@H](O)[C@H]3O[C@H](CO)[C@@H](O)[C@H](O)[C@@H]3O)c(C)c2)c1	–	–	male Sprague-Dawley rat, plasma	intravenous, 3 mg/kg, group mean	Tmax	0.083 h
CCOC(=O)CCNc1cc(N2CCc3ccccc3CC2)nc(-c2ccccn2)n1	OCI-Ly1	–	–	1 µM, 120 h	viability	98.4%
Cc1cccc(CNC(=O)c2cn(CCNC(=O)c3ccccc3Sc3c([N+](=O)[O-])ncn3C)c3cc4c(cc3c2=O)OC(F)(F)O4)n1	–	–	Sprague-Dawley rat, male, plasma	intramuscular, 30 mg/kg of parent drug	Tmax	0.19 ± 0.06 h
Nc1nc(O)c2ncn(COC(CO)CO)c2n1	–	–	Sprague-Dawley rat, male	oral, 10 mg/kg	Tmax	1.08 ± 0.583 h
CSc1ccccc1C(=O)NCCn1cc(C(=O)NCc2cccc(C)n2)c(=O)c2cc3c(cc21)OC(F)(F)O3	–	–	Sprague-Dawley rat, male, whole blood	intramuscular, 3 mg/kg of parent drug	Tmax	4 ± 2 h
O=C(O)CCSC[C@H]1O[C@@H]2O[C@H]3[C@H](O)[C@@H](O)[C@@H](O[C@H]4[C@H](O)[C@@H](O)[C@@H](O[C@H]5[C@H](O)[C@@H](O)[C@@H](O[C@H]6[C@H](O)[C@@H](O)[C@@H](O[C@H]7[C@H](O)[C@@H](O)[C@@H](O[C@H]8[C@H](O)[C@@H](O)[C@@H](O[C@H]9[C@H](O)[C@@H](O)[C@@H](O[C@H]1[C@H](O)[C@H]2O)O[C@@H]9CSCCC(=O)O)O[C@@H]8CSCCC(=O)O)O[C@@H]7CSCCC(=O)O)O[C@@H]6CSCCC(=O)O)O[C@@H]5CSCCC(=O)O)O[C@@H]4CSCCC(=O)O)O[C@@H]3CSCCC(=O)O	–	–	Sprague Dawley rat, plasma	intranasal, 5 mg/kg, together with: rocuronium bromide IV	Tmax	0.7 h
CNCC[C@@H](Oc1ccccc1C)c1ccccc1	Nuclear receptor subfamily 2 group C member 2 ligand-binding domain	SPR imaging	–	–	Kd	0.122 nM
O=c1oc2c(O)c(O)cc3c(=O)oc4c(O)c(O)cc1c4c23	–	–	rat, plasma	oral, 1000 mg/kg extract, possible metabolite or extract component	Tmax	1.33 ± 0.33 h
CN(C)C(=O)c1cc2cnc(Nc3ccc(N4CCNCC4)cn3)nc2n1C1CCCC1	–	intracerebral microdialysis	Sprague-Dawley rat, male, brain extracellular fluid, striatal dialysate	intraperitoneal, 100 mg/kg	Tmax	~6 h

For quick reference, copied from above:
Compound	target or system	test	system	conditions	quantity	result
COC(=O)C1=CO[C@@H](O[C@@H]2O[C@H](CO)[C@@H](O)[C@H](O)[C@H]2O)[C@@H]2C(CO)=CC[C@H]12	–	–	rat, plasma	oral, 500 mg/kg Eu + 217 mg/kg Pc extract, dosed as combined Eu and Pc extracts	Tmax	0.63 ± 0.53 h
C1=C/COCc2cc(ccc2OCCN2CCCC2)Nc2nccc(n2)-c2cccc(c2)COC/1	–	LC-MS/MS	Sprague-Dawley rat, male, plasma	oral, 36 mg/kg, together with: isavuconazole 20 mg/kg oral	Tmax	7.33 ± 2.07 h
Cc1cccc(CNC(=O)c2cn(CCNC(=O)c3ccccc3Sc3c([N+](=O)[O-])ncn3C)c3cc4c(cc3c2=O)OC(F)(F)O4)n1	–	–	Sprague-Dawley rat, male, plasma	intramuscular, 30 mg/kg of parent drug	Tmax	0.19 ± 0.06 h
CC(=O)CC(c1ccccc1)c1c(O)c2ccccc2oc1=O (stereo not shown)	–	–	Sprague-Dawley rat, male, plasma	oral, 0.3 mg/kg/day, 1 week, without PNS	Tmax	2.2 ± 0.37 h
CCCCCCCOc1ccc(CCC(N)(CO)CO)cc1C(F)(F)F.Cl	–	–	male Sprague-Dawley rat, heart	oral, 1 mg/kg, single dose	Tmax	8 h
